Results of several laboratories.
Every numbered part comes from another study and shows a few of its results, in no order. Substitutions count along the parent as printed.

Sample 1 — method: RNA Bind-n-Seq; form: RNA; sample: in vitro; tested at: 365 nM; baseline: no-protein control; direction: higher = stronger binding
Target: RNA binding protein fox-1 homolog 2, RRM domain, GST-SBP tag (RBFOX2, Homo sapiens, UniProt O43251-10, residues 100-194)
Notes: natural RNA segment, single round, ends assumed
All sequences stand within: GGGAGUUCUACAGUCCGACGAUC … UGGAAUUCUCGGGUGCCAA
Construct (chain): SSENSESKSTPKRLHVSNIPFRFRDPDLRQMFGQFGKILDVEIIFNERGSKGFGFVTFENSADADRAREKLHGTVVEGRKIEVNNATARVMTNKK
Under “RBNS enrichment (R)”, `UUGCCAGAACAUGUCUUGGUACCUUGUGAAAGCAGGCUGCCCUUGUUCUUGAGAUAGACUUUAAAAUGAACCAGCUCUGAAAAGUACUUCUGCUGCUCUGGUCUAUCCCU` is recorded as 0.226.
`UCUCCCCUGGGACCAGCUGGAGGGCCACAUGCACACACAGCCUAGCUGCCCCCAGGGAGCUCUGCUGCCCUUGCUGGCCCUGCCCUUCCCACAGGUGAGCAGGGCUCCUG`: “RBNS enrichment (R)” 1.32.
For `CUUGUUGACAGAAUGAGACCCUGUGGAAAAAAAAAAAAAAGCCCUCCCAUGCCAGAACAGAGGAUGGCAGUCUGUUUCAAUAAGACACUGUGUCCUUGGUGUUGGUUCUG`, “RBNS enrichment (R)” read 0.761.
`AGAACUCACAGCCACGGAAGAGUUGUUGCAUUCAGAUUCUUGAGAAACAUUUGUUGCUCGGCAACAGUACUGGUUGGGUUGACCAGUUAAGUACCAAAAGGCUAUGCUGU` — result for “RBNS enrichment (R)”: 0.589.
Under “RBNS enrichment (R)”, `AAGUCAUACCAAUGAAAAAAUGUAUAUGCACUUAUAAUUUUCCUAAUAAAGUUCUGUACUCAAAUGUGCCACCAACAGUUUGAAAUUAGUGUUACUACUUGGAAUUUUCU` is recorded as 0.576.
Under “RBNS enrichment (R)”, `UUUUUUUCAGAGCCAGUGGCUGGUCUUCCAUUUACAGUGUCACUAUUCCCUGACGGAGCUGUUAUGUGCCGCUCUAGCGAAGGCCCCAGCCGGGAUGCUAGGCCUAAUUG` is recorded as 0.419.
`GUUUGGCUCUGUAGGAGUGAGUGGCGAUUCAAAGAUGCCGGCGUCCCGCAGUGUGCGGUUCGUGCCCUUAACCACCCGCUUCUUUGUUUCCCGCCCCUCUGCUUUCGCAG`: “RBNS enrichment (R)” 0.251.
`UGGCCCCACGUGUGUGGUGUUUGUGUGUCUGUGCCUGGCCAAGGGAGGUGCCAACACUGGGCUUGCCACAGCCCCAGGAGAGGAAUUUGGGGCCUAGGAACCGAGGGCAC` — result for “RBNS enrichment (R)”: 0.602.

Sample 2 — method: protein-binding microarray; form: double-stranded DNA, one strand shown; sample: in vitro; tested at: 250 nM; notes: 60-bp whole probe; with: salmon DNA 0.4 mg/ml; baseline: random background probes; direction: higher = stronger binding; all sequences stand within: GCCTAGCAC … GTCTTGATTCGCTTGACGCTGCTG
Target: Interferon regulatory factor 5, full length, phosphomimetic (IRF5, Homo sapiens, UniProt Q13568-2, residues 1-514, K96S/S451D/S453D/S456D/S462D)
`GACGATTTCGGGTATCGAGATGTGCTA` has a log fluorescence of 5.12 z-score.
With `TTTGGTTTCGGGACTGGGTTAGTGCTA` the log fluorescence was 8.04 z-score.
The log fluorescence of `TCAGATATCAGTCTCGATTAGTGCTAG` is reported as 1.97 z-score.
For `GACGGTATCGGCTTCGGGACGTGCTAG`, the log fluorescence was 1.99 z-score.
`TCATTTATCAATCATTTTACTGTGCTA` has a log fluorescence of 1.69 z-score.
The log fluorescence of `GACGGTATCGGTATTGGGACGTGCTAG` is reported as 5.42 z-score.
`TTAGGTTTCAGTTTCGGTTAGTGCTAG` has a log fluorescence of 11 z-score.
`TCATCTTTCATTGCTGCACTGTGCTAG` gave a log fluorescence of 2 z-score.
`GACTTTTTAGATATCTTTTTGTGCTAG` has a log fluorescence of 0.88 z-score.
The log fluorescence of `TCATAAATATCTTTGTTACTGTGCTAG` is reported as 0.711 z-score.
With `TTAGGTTCCCGTTTCCTTTAGTGCTAG` the log fluorescence was 0.398 z-score.
`TTATATATCAGTATCGATTAGTGCTAG` has a log fluorescence of 7.72 z-score.
`TTAGGTTTCGGCTCCGGTTAGTGCTAG` gave a log fluorescence of 7.25 z-score.
For `GACGGTTTCGGTCTCGGAACGTGCTAG`, the log fluorescence was 9.07 z-score.
`GACGATCTCAAACTGGAGACGTGCTAG` has a log fluorescence of -0.262 z-score.
With `TTATCAATCATTTTCGTTTTGTGCTAG` the log fluorescence was 5.05 z-score.
`TCAATTTTCAGAATTTAACTGTGCTAG` gave a log fluorescence of 1.26 z-score.
`GACGGGTCCGGTTTCGGGACGTGCTAG` gave a log fluorescence of 2.32 z-score.
`GACGGGATCGGTCTCGGGACGTGCTAG` has a log fluorescence of -0.308 z-score.

Sample 3 — method: DHFR PCA, deep sequencing; sample: yeast; with: (+)-ABA 0.032 µM; baseline: wild-type fitted maximum; direction: higher = stronger binding
Target: ABI1, truncated, D143A, DHFR fusion (Arabidopsis thaliana)
Notes: methotrexate growth selection, single substitutions
Starting sequence: PYL1, truncated, DHFR fusion (Arabidopsis thaliana); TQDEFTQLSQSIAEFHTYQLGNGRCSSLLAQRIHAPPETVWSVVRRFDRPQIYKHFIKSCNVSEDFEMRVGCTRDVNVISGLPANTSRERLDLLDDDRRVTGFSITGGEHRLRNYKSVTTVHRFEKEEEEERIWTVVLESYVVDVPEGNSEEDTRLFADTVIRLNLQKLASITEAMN; partner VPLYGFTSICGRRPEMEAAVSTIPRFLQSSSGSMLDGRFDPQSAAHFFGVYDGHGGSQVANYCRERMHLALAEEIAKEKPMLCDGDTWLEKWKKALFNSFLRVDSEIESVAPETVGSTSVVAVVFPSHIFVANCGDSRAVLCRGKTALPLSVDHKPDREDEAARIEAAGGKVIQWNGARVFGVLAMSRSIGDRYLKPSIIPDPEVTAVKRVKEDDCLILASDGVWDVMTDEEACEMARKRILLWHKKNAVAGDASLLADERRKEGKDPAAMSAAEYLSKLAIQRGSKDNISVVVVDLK
`H122S` — result for “relative binding score”: -0.301%.
Under “relative binding score”, `K126G` is recorded as 57.2%.
Under “relative binding score”, `R132Q` is recorded as 51.5%.
For `F66P`, “relative binding score” read -3.53%.
`Y141R` — result for “relative binding score”: -2.89%.
`L28H`: “relative binding score” -0.958%.
`C60G` — result for “relative binding score”: -1.09%.
Under “relative binding score”, `N22A` is recorded as 46.8%.
`T86H`: “relative binding score” 24.2%.
`H110S`: “relative binding score” 43.1%.
`L8E` — result for “relative binding score”: -6.97%.
`M176W` — result for “relative binding score”: 3.36%.
`N114C`: “relative binding score” -4.98%.
`R32M` — result for “relative binding score”: 18.7%.
For `Y141S`, “relative binding score” read -1.06%.
Under “relative binding score”, `R99Y` is recorded as 68.5%.
`R32F`: “relative binding score” 7.33%.

Sample 4 — method: universal PBM; form: double-stranded DNA, one strand shown; sample: in vitro; tested at: not given; direction: higher = stronger binding
Target: Sal-like protein 4, full length isoform B (SALL4, Homo sapiens, UniProt Q9UJQ4-2, residues 1-616)
Notes: 8-mer, flanks averaged, mean of replicates
Construct (chain): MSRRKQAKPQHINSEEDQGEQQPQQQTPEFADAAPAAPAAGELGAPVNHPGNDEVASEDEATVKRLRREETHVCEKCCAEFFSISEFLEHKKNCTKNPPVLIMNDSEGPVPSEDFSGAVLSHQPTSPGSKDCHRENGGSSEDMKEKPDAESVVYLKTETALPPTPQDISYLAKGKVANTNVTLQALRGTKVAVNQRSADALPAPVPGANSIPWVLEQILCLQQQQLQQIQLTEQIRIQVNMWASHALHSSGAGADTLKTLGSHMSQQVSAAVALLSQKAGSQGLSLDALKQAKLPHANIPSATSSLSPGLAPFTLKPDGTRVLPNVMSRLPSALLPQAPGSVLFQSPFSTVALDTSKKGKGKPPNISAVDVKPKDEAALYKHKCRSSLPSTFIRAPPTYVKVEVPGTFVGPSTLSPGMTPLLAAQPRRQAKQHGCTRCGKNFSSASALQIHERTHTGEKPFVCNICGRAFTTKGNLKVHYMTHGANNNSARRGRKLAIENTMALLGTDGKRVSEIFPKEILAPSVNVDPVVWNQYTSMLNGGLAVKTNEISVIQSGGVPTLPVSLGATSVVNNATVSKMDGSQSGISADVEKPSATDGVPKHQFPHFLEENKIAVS
`CAGTGTAG` gave an E-score of 0.028.
With `CATCTGCG` the E-score was -0.0973.
`GACAGACA` has an E-score of 0.0551.
For `GCGCTACA`, the E-score was 0.0409.
`GGGTCACC` has an E-score of -0.324.
With `ATAATACG` the E-score was 0.286.
For `CTAGTCTC`, the E-score was -0.0209.
With `GCCGGAGC` the E-score was -0.235.
`CTACACCC` has an E-score of -0.254.
The E-score of `ACCAGAGT` is reported as -0.0949.
For `ACATTGCA`, the E-score was 0.0432.
`GGCAGCGA` gave an E-score of -0.258.
`AGACAGAC` has an E-score of 0.0152.
`CAGGTTGG` gave an E-score of -0.205.
`CATCTAGG` gave an E-score of -0.0539.
With `CGGCGGAG` the E-score was -0.319.
With `AAAAGTGA` the E-score was 0.233.
`CAGTGTCG` has an E-score of -0.209.
The E-score of `AGGATGCC` is reported as -0.245.
With `GCGATCGC` the E-score was -0.193.
For `ATTACAAC`, the E-score was 0.231.
With `CATAACAA` the E-score was 0.328.
For `GAGAAGGC`, the E-score was -0.197.

A few entries again (sample 3):
Under “relative binding score”, `K126G` is recorded as 57.2%.
`R32F`: “relative binding score” 7.33%.
`N114C`: “relative binding score” -4.98%.
`T86H`: “relative binding score” 24.2%.
Under “relative binding score”, `R99Y` is recorded as 68.5%.
`M176W` — result for “relative binding score”: 3.36%.
`H122S` — result for “relative binding score”: -0.301%.
Under “relative binding score”, `R132Q` is recorded as 51.5%.
`C60G` — result for “relative binding score”: -1.09%.
